Measured values pooled from the literature.
Numbered parts are unrelated; each lists some results of a single study. Changes are numbered by the printed parent chain.

Series 1 — target: CCNB3, cyclin fold, Cln2 fusion (human); technique: yeast growth competition, sequencing; medium: yeast; notes: weak parent motif; relative to: not given; direction: higher = stronger binding
Parent: LLGL2 docking peptide (human); KSLKKSLRQSFRR; partner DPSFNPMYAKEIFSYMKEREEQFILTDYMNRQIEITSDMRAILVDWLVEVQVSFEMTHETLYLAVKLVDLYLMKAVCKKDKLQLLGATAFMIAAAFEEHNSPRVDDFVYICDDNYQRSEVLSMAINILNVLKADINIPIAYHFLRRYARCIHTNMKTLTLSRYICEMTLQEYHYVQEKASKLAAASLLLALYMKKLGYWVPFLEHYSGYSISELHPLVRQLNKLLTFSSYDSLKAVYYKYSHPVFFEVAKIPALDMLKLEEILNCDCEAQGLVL
Change | normalised enrichment score
KSLKKSLRASFRR [Q9A] | 0.696
KSLKKSLRQSARR [F11A] | -0.181
KSLKASLRQSFRR [K5A] | 0.489
KSLKKSLRQSFRA [R13A] | 0.449
KALKKSLRQSFRR [S2A] | 0.145
KSLKKSLRQSFAR [R12A] | 0.598
ASLKKSLRQSFRR [K1A] | 0.479

Series 2 — technique: RNAcompete; form: RNA; medium: in vitro; concentration: 20 nM; notes: 7-mer, probes averaged, single round; relative to: mean of 7-mers; direction: higher = stronger binding
Target: PABPC1L2, full length, GST fusion (mouse, UniProt A0ABA7IW68)
Target sequence (chain): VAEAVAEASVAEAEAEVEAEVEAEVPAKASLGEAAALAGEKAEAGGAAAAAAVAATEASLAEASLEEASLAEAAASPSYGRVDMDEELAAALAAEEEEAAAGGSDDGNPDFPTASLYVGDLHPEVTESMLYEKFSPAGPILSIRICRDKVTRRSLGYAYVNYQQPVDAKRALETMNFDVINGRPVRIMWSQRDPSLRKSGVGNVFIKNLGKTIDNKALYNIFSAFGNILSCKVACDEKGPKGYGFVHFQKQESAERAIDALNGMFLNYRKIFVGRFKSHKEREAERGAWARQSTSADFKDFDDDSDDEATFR
Oligonucleotide | 7-mer Z-score
CGAGGCC | -0.213
CCAGAAG | -0.11
GCCCCGA | -0.222
CUCAAAA | 3.17
AGCGCUG | -0.17
AUUAUUA | -0.19
ACAAAGA | 1.74
GGUCCCU | -0.208
CGCGUAC | -0.211
UGCACUA | -0.211
UCAGCAC | -0.124
GCGCUGA | -0.0899
ACAACUC | -0.0464
UUGCCAA | 0.0279
UUCCAAA | 0.416
UUUGGGG | -0.0609
UUGGGAG | 0.0533
CUUUGCU | -0.476
CGAAGUG | -0.106
UGUGAUG | -0.286
AUCACCG | -0.144
UGCGCCG | -0.275
GACCUCG | -0.302
CGCUCAG | -0.05
GAUUGCA | -0.175

Series 3 — technique: RNA Bind-n-Seq; form: RNA; medium: in vitro; concentration: not given; relative to: input RNA pool; direction: higher = stronger binding
Target: RING finger protein unkempt homolog, zinc fingers 1-6, GST-SBP tag (UNK, Homo sapiens, UniProt Q9C0B0, residues 30-357)
Sequence of UniProt Q9C0B0 (30-357, looked up): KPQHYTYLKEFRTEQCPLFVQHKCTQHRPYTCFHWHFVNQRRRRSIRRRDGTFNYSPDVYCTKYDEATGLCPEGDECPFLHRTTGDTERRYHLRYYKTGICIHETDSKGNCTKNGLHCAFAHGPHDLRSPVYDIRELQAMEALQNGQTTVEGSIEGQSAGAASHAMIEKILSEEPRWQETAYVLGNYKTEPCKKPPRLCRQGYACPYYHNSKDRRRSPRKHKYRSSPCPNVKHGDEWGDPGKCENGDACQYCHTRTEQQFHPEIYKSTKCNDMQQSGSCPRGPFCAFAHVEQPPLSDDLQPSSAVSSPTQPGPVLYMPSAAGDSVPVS
Notes: RNA with constant flanks, human and mouse sites, ends assumed
Shared flanks, not repeated: GGGAGUUCUACAGUCCGACGAUC … CAACAGAGGAUUGAGCAUCA
Oligonucleotide | bound/input enrichment [ratio]
UUCUAAAAACAUUCAUAAUGCAGUCAUGUUUAUUUUUUUCUGUUAAAAUGUUUUUGACAGUUUUAAGAGCAGUCUUUUGGCUCUGACCAUUUCUUGUUCUGUUUCCAAUGAAAUCAAUAA | 0.138
AUUGCGCCGGCAGGAUGUCCCUGGCUGCCUACUGUGUCAUCUGUUGCAGGAGGAUAGGAUCCUUUGCUCCCCGAUCAAAAAGUCGCACGCCCUGGAGAAAUAUCCGAAAUAUAAUAAGAU | 0.125
UCUGGUCACACUCGUGUGUAUGGUGUUUGCUUUGUGGACACUUCACUGGGCAAGUUUUUCAUCGGCCAGUUUUCGGAUGACCGCCACUGUUCCAGAUUUAGGACGCUAGUGGCUCACUAU | 0.216
AAUUUAAUGCUGUAGAGGGUGACUUGCCAUCGUGAGAGAUUGGUACAUGAUGUGUAAAUUCAGUUCAGCAUAUGUUUCUUCAUUAUGAAACCACUAGCAAUCCCAGCUAACCAUGGAGUU | 0.243
AAUUUUAAAUUUGUGUGGGCCUGUUUCAAUAGAUACUAUGGUGCCAUUUCAAAAUUAAAAAGUCAGCACCAAGAAGACCCAAAUAACACUUCACUUUUAACAAAUAAACCAGCGCUUCUU | 0.828
GCAUUUCCUAAUCCUGAGGCCAUAAGGGUUCCUUUAAGAGAAAAAUACCACUCUCUUCAACAGAAACUCAAACAUGGUGUUGUGAAAGGUCCUCAGACUGAGGAACUGAUGUCUACAGUC | 0.197
CUGUCUGUCCACACCAUGGUCUCCUCAGUCCCCUCCACGCCAGCCCCUCUUCCCCACACCUAGUAGGUGUGCUACACCUCCCUUUGCCAGUCAUCCCGCCAUGGAUGGGGAGCCUACUUG | 0.344
UCAUCUACGUUUGCAAUUCCCCAGGAAUUAGAAAAAAGUGUACAGAUGUUUGAAUUAUUUUAUAGCCAACAUUUCAGUGGAAGGAAACUUACAUGGUUACAUUAUCUGUGUACAGGUGAA | 1.3
AGACUUUCCAGCUCAGAGAGUGAAGAGAGCUAUUUGUCCAAGAACUCUGAAGAUGAUGAGCUAGCUAAAGAAUCAAAGCGGUCAGUUCGAAAGCGGGGCCGAAGCACAGACGAGUAUUCA | 0.159
CUGCUUUUGGUGCUGCCUGUUGUGGAAGCAGUAGAAGCCGGUGAUGCAAUCGCCCUUUUGUUAGGUGUGGUUCUCAGCAUUACAGGCAUUUGUGCCUGCUUGGGGGUAUAUGCACGAAAA | 0.183
CUGAACAUUUUGAAACUGGCUCCUGGUGGGCAUGUGGGCCGUUUCUGCAUCUGGACGGAGAGUGCUUUCCGGAAGUUGGAUGAGCUGUAUGGCACUUGGCGGAAGGCUGCUUCCCUCAAG | 0.202

Series 4 — technique: protein binding microarray; form: double-stranded DNA, one strand shown; medium: in vitro; concentration: not given; relative to: not given; direction: higher = stronger binding
Target: Histone acetyltransferase KAT6A, winged helix 1, GST fusion (KAT6A, Homo sapiens, UniProt Q92794, residues 1-85)
Notes: 8-mer, flanks averaged, mean of 2 arrays, mostly near background
Target sequence (chain): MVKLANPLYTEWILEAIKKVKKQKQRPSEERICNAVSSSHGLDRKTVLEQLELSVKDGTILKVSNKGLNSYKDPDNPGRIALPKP
Oligonucleotide | E-score
GATGGTCA | -0.0981
ACTTACTG | -0.0436
GCACCGGC | 0.323
TGGGAAAA | -0.214
GGCGAAAC | -0.00443
CAAGTGTA | -0.135
AAGACTGT | -0.0358
AAAGACAC | -0.2
CGACGCGC | 0.417
AAATACCA | -0.252
CCCGGGTA | 0.224
ATACGATA | -0.0645
GCGGTGAA | 0.231
ACCATTAC | 0.00284
CAAATTTC | -0.302
CAACGATG | -0.288
GCTAGAGA | -0.123
ATCGCCAG | -0.0196
ATTTCCGA | -0.0554
ATGCGCAA | 0.24
GGCTCTCA | 0.101
ATTTGGTG | -0.355
AAAGATTG | -0.19

Series 5 — technique: protein-binding microarray; form: double-stranded DNA, one strand shown; medium: in vitro; concentration: not given; direction: higher = stronger binding
Target: Transcription factor SOX-2, HMG box (SOX2, Homo sapiens, UniProt P48431, residues 19-118)
Sequence of UniProt P48431 (19-118, looked up): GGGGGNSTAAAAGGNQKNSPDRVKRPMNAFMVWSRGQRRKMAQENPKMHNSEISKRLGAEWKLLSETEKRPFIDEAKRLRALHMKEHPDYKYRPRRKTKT
Notes: k-mer, scored over probes, only values ≥0.25
Oligonucleotide | E-score
CATGAAA | 0.295
CAAAAAA | 0.271
ACAATGC | 0.429
ATCAATG | 0.365
GATAATC | 0.321
AATTAGA | 0.319
GTATTGA | 0.362
AATAGCT | 0.28
AATTGCG | 0.253
ACAATTA | 0.461
ATTATTC | 0.405
TGTGAAA | 0.332
AATATTG | 0.332
GAATACA | 0.311
ATTATCA | 0.325
AAACGGC | 0.322

Series 6 — target: UBE2V2 UBC core domain (UniProt Q15819); technique: yeast two-hybrid; medium: yeast; notes: mostly zero background; relative to: not given; direction: higher = stronger interaction
Sequence of UniProt Q15819 (whole entry, looked up): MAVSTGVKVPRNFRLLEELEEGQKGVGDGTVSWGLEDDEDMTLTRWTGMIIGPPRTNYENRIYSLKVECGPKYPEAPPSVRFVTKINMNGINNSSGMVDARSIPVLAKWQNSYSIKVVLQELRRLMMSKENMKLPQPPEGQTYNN
B1: RNF32 RING domain (UniProt Q9H0A6); chain VQALRRETHECSICLAPLSAAGGQRVGAGRRSREMALLSCSHVFHHACLLALEEFSVGDRPPFHACPLCRSCYQKKILEC
B2: RFPL3 RING domain (UniProt O75679); chain MAALFQEASSCPVCSDYLEKPMSLECGCTVCLKCINSLQKEPHGEDLLCCCCSMVSQRNKIRP
B3: SHPRH RING domain (UniProt Q149N8); chain KTSGGVNPEPCPICARQLGKQWAVLTCGHCFCNECISIIIEQYSVGSHRSSIKCAICRQTTSHKEISY
B4: TRIM32 RING domain (UniProt Q13049); chain NLDALREVLECPICMESFTEEQLRPKLLHCGHTICRQCLEKLLASSINGVRCPFCSKITRITSLTQ
B5: RMND5B RING domain (UniProt Q96G75); chain MKCWYHSVFACPILRQQTSDSNPPIKLICGHVISRDALNKLINGGKLKCPYCPMEQNPADGK
B6: RNF115 RING domain (UniProt Q9Y4L5); chain TQEQVDMGLECPVCKEDYTVEEEVRQLPCNHFFHSSCIVPWLELHDTCPVCRKSLNGEDSTR
B7: TRIM28 RING domain (UniProt Q13263); chain GAEALELLEHCGVCRERLRPEREPRLLPCLHSACSACLGPAAPAAANSSGDGGAAGDGTVVDCPVCKQQCFSKDIVE
B8: RNF10 RING domain (UniProt Q8N5U6); chain VRICSHEVPSCPICLYPPTAAKITRCGHIFCWACILHYLSLSEKTWSKCPICYSSVHKKDLKS
Molecule | lacZ reporter activity
B1 (RNF32 RING domain) | 0
B2 (RFPL3 RING domain) | 0
AAQLLEEKLTCAICLGLYQDPVTLPCGHNFCGACIRDWWDRCGKACPECREPFPDGAELR (TRIM65 RING domain (UniProt Q6PJ69)) | 0
SNNDLASLFECPVCFDYVLPPILQCQSGHLVCSNCRPKLTCCPTCRGPLGSIRNLA (SIAH1 RING domain (UniProt Q8IUQ4)) | 0
B3 (SHPRH RING domain) | 0
B4 (TRIM32 RING domain) | 0
B5 (RMND5B RING domain) | 0
B6 (RNF115 RING domain) | 0
GSEEEEIPFRCFICRQAFQNPVVTKCRHYFCESCALEHFRATPRCYICDQPTGGIFNPA (RNF113B RING domain (UniProt Q8IZP6)) | 0
B7 (TRIM28 RING domain) | 0
B8 (RNF10 RING domain) | 0

A few entries again (series 3):
Oligonucleotide | bound/input enrichment [ratio]
AAUUUAAUGCUGUAGAGGGUGACUUGCCAUCGUGAGAGAUUGGUACAUGAUGUGUAAAUUCAGUUCAGCAUAUGUUUCUUCAUUAUGAAACCACUAGCAAUCCCAGCUAACCAUGGAGUU | 0.243
AAUUUUAAAUUUGUGUGGGCCUGUUUCAAUAGAUACUAUGGUGCCAUUUCAAAAUUAAAAAGUCAGCACCAAGAAGACCCAAAUAACACUUCACUUUUAACAAAUAAACCAGCGCUUCUU | 0.828
GCAUUUCCUAAUCCUGAGGCCAUAAGGGUUCCUUUAAGAGAAAAAUACCACUCUCUUCAACAGAAACUCAAACAUGGUGUUGUGAAAGGUCCUCAGACUGAGGAACUGAUGUCUACAGUC | 0.197
CUGUCUGUCCACACCAUGGUCUCCUCAGUCCCCUCCACGCCAGCCCCUCUUCCCCACACCUAGUAGGUGUGCUACACCUCCCUUUGCCAGUCAUCCCGCCAUGGAUGGGGAGCCUACUUG | 0.344
UCAUCUACGUUUGCAAUUCCCCAGGAAUUAGAAAAAAGUGUACAGAUGUUUGAAUUAUUUUAUAGCCAACAUUUCAGUGGAAGGAAACUUACAUGGUUACAUUAUCUGUGUACAGGUGAA | 1.3
AGACUUUCCAGCUCAGAGAGUGAAGAGAGCUAUUUGUCCAAGAACUCUGAAGAUGAUGAGCUAGCUAAAGAAUCAAAGCGGUCAGUUCGAAAGCGGGGCCGAAGCACAGACGAGUAUUCA | 0.159
CUGCUUUUGGUGCUGCCUGUUGUGGAAGCAGUAGAAGCCGGUGAUGCAAUCGCCCUUUUGUUAGGUGUGGUUCUCAGCAUUACAGGCAUUUGUGCCUGCUUGGGGGUAUAUGCACGAAAA | 0.183
